# Experimental data pooled from the literature.
# Protocols differ between the studies behind these lines.
# Organism: Human alphaherpesvirus 1
Structure (SMILES),test,test system,conditions,how to read,measurement,value
C=C(C)[C@@H]1CC[C@]2(CO)CC[C@]3(C)[C@H](CC[C@@H]4[C@@]5(C)CCCNC(C)(C)[C@@H]5CC[C@]43C)[C@@H]12,cytopathic effect,"HFF, E-377",,,EC50,> 6 µM
CC(=O)OC[C@H]1O[C@@H](Sc2sc(C(=O)c3ccc(Br)cc3)c(N)c2-c2nc3ccccc3s2)[C@H](OC(C)=O)[C@@H](OC(C)=O)[C@@H]1OC(C)=O,plaque formation,HSV-1,,,IC50,0.55 µg/mL
C=CC1CN(C(=O)NCC=CCSCC=CCNC(=O)N2CC(C=C)OC2=S)C(=S)O1 (centres unmarked),viral replication,HSV-1,,,IC50,3.7 µM
N=C(NO)NN=Cc1cccc(Cl)n1,plaque formation,Vero,96 h,,IC50,> 100 µM
O=c1c(-c2nc3ccccc3s2)cc2c(n1NS(=O)(=O)c1ccc(Cl)cc1)CCCCCC2,"viral replication, plaque reduction",Vero cells,,,IC50,89 µg/mL
Cc1ccc(O)c(C=NNC(=N)NO)n1,plaque formation,Vero,96 h,,IC50,38 µM
CC(=O)O[C@@H]1[C@@H](OC(C)=O)[C@H](Sc2sc(C(=O)c3ccc(Br)cc3)c(N)c2-c2nc3ccccc3s2)OC[C@H]1OC(C)=O,plaque formation,HSV-1,,,IC50,0.57 µg/mL
C=C(C)[C@@H]1CCC=C2CC[C@]3(C)[C@H](CC[C@@H]4[C@@]5(C)CCCNC(C)(C)[C@@H]5CC[C@]43C)[C@H]21,cytopathic effect,"HFF, E-377",,,EC90,> 6 µM
N=C(NO)NN=Cc1ccc2ccccc2n1,plaque formation,Vero,96 h,,IC50,23.5 µM
C[C@H]1[C@H](C)CC[C@]2(CO)CC[C@]3(C)C(=CC[C@@H]4[C@@]5(C)CCCNC(C)(C)[C@@H]5CC[C@]43C)[C@H]12,cytopathic effect,"HFF, E-377",,,EC90,> 6 µM
Cc1ccc(S(=O)(=O)Nn2c3c(cc(-c4nc5ccccc5s4)c2=O)CCCCCC3)cc1,"viral replication, plaque reduction",Vero cells,,reference: CC50 over IC50,selectivity index,3.06

# For quick reference, copied from above:
Structure (SMILES),test,test system,conditions,how to read,measurement,value
C=C(C)[C@@H]1CC[C@]2(CO)CC[C@]3(C)[C@H](CC[C@@H]4[C@@]5(C)CCCNC(C)(C)[C@@H]5CC[C@]43C)[C@@H]12,cytopathic effect,"HFF, E-377",,,EC50,> 6 µM
C[C@H]1[C@H](C)CC[C@]2(CO)CC[C@]3(C)C(=CC[C@@H]4[C@@]5(C)CCCNC(C)(C)[C@@H]5CC[C@]43C)[C@H]12,cytopathic effect,"HFF, E-377",,,EC90,> 6 µM
